Published values of several laboratories.
“And” joins repeats or separate records; there may be more than shown. ± gives the spread as reported.
Sequence of UniProt P02716 (whole entry, looked up): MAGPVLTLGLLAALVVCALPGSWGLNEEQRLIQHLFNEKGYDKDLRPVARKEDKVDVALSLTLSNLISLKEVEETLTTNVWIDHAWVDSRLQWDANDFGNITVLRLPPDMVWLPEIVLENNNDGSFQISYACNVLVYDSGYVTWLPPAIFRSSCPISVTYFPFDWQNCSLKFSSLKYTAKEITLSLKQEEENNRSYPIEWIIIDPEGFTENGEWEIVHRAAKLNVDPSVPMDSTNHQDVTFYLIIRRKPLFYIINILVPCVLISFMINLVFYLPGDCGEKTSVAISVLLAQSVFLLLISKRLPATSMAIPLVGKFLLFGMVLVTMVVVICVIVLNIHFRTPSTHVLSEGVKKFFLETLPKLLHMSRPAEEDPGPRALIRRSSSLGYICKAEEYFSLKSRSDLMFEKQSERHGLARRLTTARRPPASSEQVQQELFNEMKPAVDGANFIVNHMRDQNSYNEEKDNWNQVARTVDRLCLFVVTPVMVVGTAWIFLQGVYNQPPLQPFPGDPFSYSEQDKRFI
Sequence of UniProt P04756 (whole entry, looked up): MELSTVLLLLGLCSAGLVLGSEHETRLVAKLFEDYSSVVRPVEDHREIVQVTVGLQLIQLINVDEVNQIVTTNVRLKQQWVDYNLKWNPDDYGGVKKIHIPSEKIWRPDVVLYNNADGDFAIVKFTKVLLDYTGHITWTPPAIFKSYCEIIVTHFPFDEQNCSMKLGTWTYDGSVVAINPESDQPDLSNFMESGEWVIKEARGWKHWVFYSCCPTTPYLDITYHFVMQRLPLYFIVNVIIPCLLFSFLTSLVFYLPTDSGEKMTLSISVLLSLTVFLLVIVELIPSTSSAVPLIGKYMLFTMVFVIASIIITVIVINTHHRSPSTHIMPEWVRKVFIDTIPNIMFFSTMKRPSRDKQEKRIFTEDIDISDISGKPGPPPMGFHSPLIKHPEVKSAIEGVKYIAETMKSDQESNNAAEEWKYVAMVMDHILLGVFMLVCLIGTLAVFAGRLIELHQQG
Sequence of UniProt P20782 (whole entry, looked up): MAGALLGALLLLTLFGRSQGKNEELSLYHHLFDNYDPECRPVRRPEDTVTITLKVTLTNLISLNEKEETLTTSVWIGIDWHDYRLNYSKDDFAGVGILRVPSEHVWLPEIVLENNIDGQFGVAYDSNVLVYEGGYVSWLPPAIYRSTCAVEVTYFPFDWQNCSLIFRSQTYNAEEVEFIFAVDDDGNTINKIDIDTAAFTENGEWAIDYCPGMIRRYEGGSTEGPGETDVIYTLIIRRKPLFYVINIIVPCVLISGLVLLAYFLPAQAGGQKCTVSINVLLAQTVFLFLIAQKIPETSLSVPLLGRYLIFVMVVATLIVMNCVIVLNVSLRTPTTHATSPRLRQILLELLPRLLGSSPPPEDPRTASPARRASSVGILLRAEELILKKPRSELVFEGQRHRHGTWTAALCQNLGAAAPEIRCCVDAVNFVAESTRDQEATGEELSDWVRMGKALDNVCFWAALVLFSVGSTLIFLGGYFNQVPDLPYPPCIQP
Sequence of UniProt P51168 (whole entry, looked up): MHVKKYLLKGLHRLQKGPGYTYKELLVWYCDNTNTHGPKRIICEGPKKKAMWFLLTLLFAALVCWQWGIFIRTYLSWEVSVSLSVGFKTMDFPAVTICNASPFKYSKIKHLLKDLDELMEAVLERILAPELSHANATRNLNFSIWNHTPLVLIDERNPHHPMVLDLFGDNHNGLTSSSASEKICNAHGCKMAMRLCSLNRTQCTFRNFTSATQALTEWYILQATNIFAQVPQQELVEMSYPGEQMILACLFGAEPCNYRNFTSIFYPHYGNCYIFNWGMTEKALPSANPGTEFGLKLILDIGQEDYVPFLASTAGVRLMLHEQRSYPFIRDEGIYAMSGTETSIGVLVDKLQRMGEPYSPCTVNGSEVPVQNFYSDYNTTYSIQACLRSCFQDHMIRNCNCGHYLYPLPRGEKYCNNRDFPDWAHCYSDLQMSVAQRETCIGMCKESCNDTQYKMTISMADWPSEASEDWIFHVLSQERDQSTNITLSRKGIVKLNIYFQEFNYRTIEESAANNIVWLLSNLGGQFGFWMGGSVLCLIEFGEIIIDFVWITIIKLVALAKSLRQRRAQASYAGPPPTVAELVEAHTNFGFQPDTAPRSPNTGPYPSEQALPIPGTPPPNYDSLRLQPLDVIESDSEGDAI
Sequence of UniProt P22459 (whole entry, looked up): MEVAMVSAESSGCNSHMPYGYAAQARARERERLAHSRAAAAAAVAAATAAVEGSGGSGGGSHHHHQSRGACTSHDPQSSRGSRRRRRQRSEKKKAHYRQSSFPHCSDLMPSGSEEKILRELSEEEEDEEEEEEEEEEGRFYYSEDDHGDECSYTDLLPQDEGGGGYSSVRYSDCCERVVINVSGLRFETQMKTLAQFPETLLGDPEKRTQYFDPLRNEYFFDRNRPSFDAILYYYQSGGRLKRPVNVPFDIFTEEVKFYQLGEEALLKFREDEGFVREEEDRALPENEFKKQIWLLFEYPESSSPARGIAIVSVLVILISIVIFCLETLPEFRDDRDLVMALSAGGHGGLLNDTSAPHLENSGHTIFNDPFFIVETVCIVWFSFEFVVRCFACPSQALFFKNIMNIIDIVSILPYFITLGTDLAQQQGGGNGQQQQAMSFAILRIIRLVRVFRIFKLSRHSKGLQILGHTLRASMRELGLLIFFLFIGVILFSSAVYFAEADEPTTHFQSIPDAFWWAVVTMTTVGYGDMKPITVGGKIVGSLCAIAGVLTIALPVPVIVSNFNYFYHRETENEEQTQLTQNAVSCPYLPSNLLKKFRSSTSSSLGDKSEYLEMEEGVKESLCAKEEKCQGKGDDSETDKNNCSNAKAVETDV
Sequence of UniProt P0A8V2 (whole entry, looked up): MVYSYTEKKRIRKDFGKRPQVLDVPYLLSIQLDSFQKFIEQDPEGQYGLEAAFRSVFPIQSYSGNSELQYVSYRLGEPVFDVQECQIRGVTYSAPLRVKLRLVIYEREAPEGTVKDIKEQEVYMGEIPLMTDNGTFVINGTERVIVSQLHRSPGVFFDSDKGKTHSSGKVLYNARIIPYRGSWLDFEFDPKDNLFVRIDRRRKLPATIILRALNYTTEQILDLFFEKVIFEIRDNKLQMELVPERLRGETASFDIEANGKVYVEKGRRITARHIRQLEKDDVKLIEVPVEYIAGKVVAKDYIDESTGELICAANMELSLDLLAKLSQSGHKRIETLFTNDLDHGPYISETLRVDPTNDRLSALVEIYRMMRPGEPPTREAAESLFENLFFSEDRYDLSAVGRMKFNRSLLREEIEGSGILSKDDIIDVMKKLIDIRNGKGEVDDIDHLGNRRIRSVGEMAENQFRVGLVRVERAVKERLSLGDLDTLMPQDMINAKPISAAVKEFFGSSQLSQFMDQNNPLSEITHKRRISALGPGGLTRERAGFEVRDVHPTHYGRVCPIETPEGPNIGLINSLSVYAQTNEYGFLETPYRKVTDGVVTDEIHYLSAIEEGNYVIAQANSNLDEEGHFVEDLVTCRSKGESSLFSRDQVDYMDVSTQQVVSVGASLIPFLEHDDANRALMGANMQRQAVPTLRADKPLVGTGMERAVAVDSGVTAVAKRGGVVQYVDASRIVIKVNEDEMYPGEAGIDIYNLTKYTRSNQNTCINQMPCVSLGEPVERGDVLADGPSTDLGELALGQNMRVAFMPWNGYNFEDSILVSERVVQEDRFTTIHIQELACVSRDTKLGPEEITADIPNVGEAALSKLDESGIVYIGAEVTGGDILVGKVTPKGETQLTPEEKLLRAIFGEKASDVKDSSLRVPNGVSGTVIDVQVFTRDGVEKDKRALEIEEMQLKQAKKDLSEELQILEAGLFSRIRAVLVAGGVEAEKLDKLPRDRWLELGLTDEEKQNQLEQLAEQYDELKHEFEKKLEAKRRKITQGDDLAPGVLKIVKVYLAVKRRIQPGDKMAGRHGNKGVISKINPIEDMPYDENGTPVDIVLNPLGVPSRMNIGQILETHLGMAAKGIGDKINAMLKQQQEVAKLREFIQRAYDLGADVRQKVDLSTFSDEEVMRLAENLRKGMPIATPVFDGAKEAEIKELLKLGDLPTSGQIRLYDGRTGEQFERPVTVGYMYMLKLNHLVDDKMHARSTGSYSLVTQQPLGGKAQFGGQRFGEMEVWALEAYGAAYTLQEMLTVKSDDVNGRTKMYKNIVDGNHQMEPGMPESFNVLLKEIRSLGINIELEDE

Substance	tested on	test	test system	conditions	scale	measurement	result
CNC(=O)[C@@H](NC(=O)[C@H](CC(C)C)[C@H](O)C(=O)NO)C(C)(C)C	Daboia russelii venom proteases (SVMP)	protease activity, inhibitor	KA population	100 µM, added: azocasein substrate	baseline: venom alone	remaining activity	0%
CC[C@H](C)[C@H](NC(=O)[C@H](C)NC(=O)[C@H](CO)NC(=O)[C@H](CC(=O)O)NC(=O)[C@H](CO)NC(=O)[C@H](Cc1ccccc1)NC(=O)[C@H](CS)NC(=O)[C@H](CC(=O)O)NC(=O)[C@H](Cc1ccccc1)NC(=O)[C@H](Cc1ccc(O)cc1)NC(=O)[C@H](Cc1ccc(O)cc1)NC(=O)[C@H](CC(C)C)NC(=O)[C@H](Cc1c[nH]cn1)NC(=O)[C@@H](NC(=O)[C@H](CC(C)C)NC(=O)[C@H](CCC(N)=O)NC(=O)[C@H](CC(=O)O)NC(=O)[C@H](C)NC(=O)[C@H](CC(C)C)NC(=O)[C@@H](N)CCC(=O)O)[C@@H](C)CC)C(=O)N[C@@H](CCCNC(=N)N)C(=O)N[C@@H](CCCCN)C(=O)N[C@@H](C)C(=O)N[C@@H](CC(C)C)C(=O)N[C@@H](CC(C)C)C(=O)NCC(=O)N[C@@H](Cc1c[nH]cn1)C(=O)N[C@H](C(=O)N[C@H](C(=O)N[C@@H](CO)C(=O)N1CCC[C@H]1C(=O)N[C@@H](CCCNC(=N)N)C(=O)N[C@@H](CS)C(=O)N[C@@H](CCC(=O)O)C(=O)N[C@@H](Cc1ccc(O)cc1)C(=O)N[C@@H](CCC(N)=O)C(=O)N[C@@H](C)C(=O)NCC(=O)N[C@@H](Cc1c[nH]cn1)C(=O)N[C@@H](CC(N)=O)C(=O)N[C@@H](CCCCN)C(=O)N[C@H](C(=O)O)C(C)C)C(C)C)[C@@H](C)CC	zinc	binding, competitive PAR titration		pH 7.4		Kd	0.054 ± 0.01 µM
Cn1cnc(Cn2c(=O)[nH]/c(=N\c3cc4cn(C)nc4cc3Cl)n(Cc3cc(F)c(F)cc3F)c2=O)n1			human, all renal function groups	oral, 375 mg, vessel puncture site haemorrhage TEAE, Severe severity		patients with adverse event	0%
acetyl pepstatin	Gag-Pol polyprotein, protease (Human immunodeficiency virus type 1 group M subtype B, UniProt P03367)	DSC extrapolation		25 °C		Kd	2.96 µM
O=C(O)CC(O)(CC(=O)O)C(=O)O	UDP-galactopyranose mutase (Corynebacterium diphtheriae, UniProt Q6NER4)	binding				Kd	~8700 µM
CC[C@H](C)[C@H](NC(=O)[C@H](CC(C)C)NC(=O)[C@H](Cc1c[nH]c2ccccc12)NC(=O)[C@H](CCC(N)=O)NC(=O)[C@@H](NC(=O)[C@H](Cc1ccccc1)NC(=O)[C@H](C)NC(=O)[C@H](CCCCNC(=O)COCCOCCNC(=O)COCCOCCNC(=O)CC[C@H](NC(=O)CCCCCCCCCCCCCCCCCCC(=O)O)C(=O)O)NC(=O)[C@H](CCC(N)=O)NC(=O)[C@H](C)NC(=O)[C@@H](NC(=O)[C@H](CCCCN)NC(=O)[C@H](CC(=O)O)NC(=O)[C@H](CC(C)C)NC(=O)C(C)(C)NC(=O)[C@@H](NC(=O)[C@H](CO)NC(=O)[C@H](Cc1ccc(O)cc1)NC(=O)[C@H](CC(=O)O)NC(=O)[C@H](CO)NC(=O)[C@@H](NC(=O)[C@H](Cc1ccccc1)NC(=O)[C@@H](NC(=O)CNC(=O)[C@H](CCC(=O)O)NC(=O)C(C)(C)NC(=O)[C@@H](N)Cc1ccc(O)cc1)[C@@H](C)O)[C@@H](C)O)[C@@H](C)CC)[C@@H](C)CC)C(C)C)C(=O)N[C@@H](C)C(=O)NCC(=O)NCC(=O)N1CCC[C@H]1C(=O)N[C@@H](CO)C(=O)N[C@@H](CO)C(=O)NCC(=O)N[C@@H](C)C(=O)N1CCC[C@H]1C(=O)N1CCC[C@H]1C(=O)N1CCC[C@H]1C(=O)N[C@@H](CO)C(N)=O		item: treatment-emergent vessel puncture site bruise	healthy subjects	1.5 mg, multiple ascending dose		subjects with adverse event	16.7%
Nc1ncnc2c([C@@H]3N[C@H](CO)[C@@H](O)[C@H]3O)c[nH]c12	Marburg virus	surface glycoprotein expression	HeLa, Musoke	50 µM, 24 h		inhibition	61.3%
CC[C@H](C)[C@H](NC(=O)[C@@H](NC(=O)[C@H](CC(C)C)NC(=O)[C@H](CC(N)=O)NC(=O)[C@H](CC(=O)O)NC(=O)[C@H](CCC(=O)O)NC(=O)[C@@H](NC(=O)[C@@H](N)CCCNC(=N)N)[C@@H](C)CC)C(C)C)C(=O)N[C@H](C(=O)N[C@@H](CCCNC(=N)N)C(=O)O)[C@@H](C)CC	Epithelial sodium channel subunit beta (Homo sapiens, UniProt P51168)	isothermal titration calorimetry		recombinant, His and GST tag		Kd	0.01 to 0.1 µM
NCCc1c(SSc2[nH]c3cc(Br)ccc3c2CCN)[nH]c2cc(Br)ccc12	KCNA4 (Homo sapiens, UniProt P22459)	activation time constant, whole-cell patch clamp	CHO-K1			Kd	2.9 ± 1 µM
CC(=O)O[C@@H]1[C@H](N)[C@@H](OP(=O)(O)O)[C@@]2(C(=O)O)CS[C@@](O)(C(N)=O)[C@@H]1O2	DNA-directed RNA polymerase subunit beta' / DNA-directed RNA polymerase subunit beta (rpoC/rpoB, Escherichia coli, UniProt P0A8T7+P0A8V2)	binding to elongation complex, 6-MI fluorescence titration	wild-type RNAP	riboside RNA 3′-end Cytosine		Kd	0.11 ± 0.04 µM
COc1cc2c3cc1Oc1cc(ccc1O)C[C@@H]1c4c(cc(OC)c(O)c4Oc4ccc(cc4)C[C@@H]3N(C)CC2)CC[N+]1(C)C	Chrnd/Chrna1/Chrne (Mus musculus, UniProt P02716+P04756+P20782)	fit of effect decay kinetics	mouse diaphragm	AChE inhibited		Kd	0.04 to 0.1 µM and 0.053 µM
AaH II scorpion toxin	rat Nav1.2a/Kv2.1 VSD IV chimera	two-electrode voltage clamp	Xenopus oocytes	22 °C		Kd	1.01 ± 0.092 µM
